Measurements pooled from the literature.
A part holds a random share of what one study measured. Changes are numbered by the printed parent chain.

Set 1
Target: CCNF, cyclin fold, Cln2 fusion (human)
Technique: yeast growth competition, sequencing
Matrix: yeast
Setting: weak parent motif
Baseline: not given
Direction: higher = stronger binding
Starting sequence: PKN2 docking peptide (human); VSAVQKLDFSDTM
Variant	normalised enrichment score
S2T	0.64
F9D	0.364
A3L	0.493
D11T	0.795
A3W	0.251
T12E	1.12
T12Q	0.575
D11A	0.701
M13T	0.875
K6A	-0.541
V4W	-0.383
T12Y	1.63
S2E	-0.738
D8W	1.24
A3E	-0.668
A3S	-0.73
T12P	2.18
V1M	1.22
M13A	0.704
A3Q	-0.53
L7T	-0.845
S2R	1.84
V4Y	0.0256
F9M	-0.338
K6Q	0.193

Set 2
Molecule: PhoQ, residues 284 288 289 292 302 303 SLSVQF
Technique: Sort-seq
Refers to: YFP reporter
Matrix: E. coli
Setting: PhoQ-PhoP variant library
With: 10 µM Mg2+
Baseline: high Mg2+ state
Direction: higher = stronger signaling
target	fold induction
PhoP, residues 12 14 15 18 19 LHHYF (Escherichia coli, UniProt P23836)	7.4
PhoP, residues 12 14 15 18 19 TPWTL (Escherichia coli, UniProt P23836)	15
PhoP, residues 12 14 15 18 19 NFFVT (Escherichia coli, UniProt P23836)	16.3

Set 3
Target: RING finger protein unkempt homolog, zinc fingers 1-6, GST-SBP tag (UNK, Homo sapiens, UniProt Q9C0B0, residues 30-357)
UniProt Q9C0B0, sequence (30-357, looked up): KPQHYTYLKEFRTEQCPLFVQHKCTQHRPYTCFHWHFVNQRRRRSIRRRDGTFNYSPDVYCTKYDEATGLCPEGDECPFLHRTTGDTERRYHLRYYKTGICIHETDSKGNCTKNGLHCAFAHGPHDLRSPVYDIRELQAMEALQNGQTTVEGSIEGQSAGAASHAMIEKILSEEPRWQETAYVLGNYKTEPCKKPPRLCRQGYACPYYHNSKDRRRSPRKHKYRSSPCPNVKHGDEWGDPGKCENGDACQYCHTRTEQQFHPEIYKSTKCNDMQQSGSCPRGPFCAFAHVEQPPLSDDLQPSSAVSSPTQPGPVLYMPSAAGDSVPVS
Technique: RNA Bind-n-Seq
Molecule type: RNA
Matrix: in vitro
Tested at: not given
Setting: RNA with constant flanks, human-mouse chimeric sites, ends assumed
Baseline: input RNA pool
Direction: higher = stronger binding
All sequences stand within: GGGAGUUCUACAGUCCGACGAUC … CAACAGAGGAUUGAGCAUCA
Sequence	bound/input enrichment [ratio]
AGAGAAAUGAGAAAGAAUCUCACACAAGAAGAGAUGCAAAGAAUGUCUACUAGAGUCCUUUUGGCGACUCUUUCCAUCCCUAUUACUCCUGAGCGAACUGAUAUUGCUCGACUUUUGGAU	0.101
AAAGCCCAAGUAUUUUGAAAAAAUUCAAACAGAUUUGACAAGGGUAGCCAGCUUGGAGUCUAGCAACUUGCCAAUGUGUUUACCAAUCUGGGGGCUUUGUUUUUCUUUCUUCUUUCAAAU	0.313
AAAGAUCUACUGAGGCAAGGCAGCAAAUUUAGGAGAGACAUUUCAACAAUAUUGAUAGAGUUAGGAUUCCAAAUUAAAAAGAAAACUAAGACAUUAUAUAUCAACAAAGCCAAUGUGUGG	8.22
AAAGAACCUCUCUCUGAUGAAGAUGAGGACAGUGAUGAUGAUGUUGAACCCAUUUCUGAAUUUAGAUUUGUGCCCAGUGAUAAGUCAGCAUUGGAGGCGAUGUUCACAGCAAUGUGUGAG	2.22
UCCCAAAUCCAGCAGCUAGAAGGAGCCUUGAGACAAACACUCCACACACAGGGAAGGCAAUAGCUUUGUAAAUUGGUUUACAUUUUUUCCCCCUGUGGAUUUUUCUAGAGGUCAUAGUGC	0.56
AGAGAUAAAGCAUCUAGGAACAUGCGAGGCUCCCGGAUGAAUGGGUUGCCUAGCCCCACUCACAGCGCCCACUGUAGCUUCUACCGAACCAGAACCUUGCAGGCACUAAGUAAUGAGAAG	0.134
GAGUCGAGCAAACUUGAAACAAUUCGUUAUCUUGCAGAGCUUCGGUGCACUUGCUUGGCGAUAGCAUUGGGGUUUUAUAGGUUCUGGAAGGAGAACUGACGAUGAUGCUGCCGCUGCUGC	0.332
CUGGCACUCUAUCAGAUAUAUUAAUUUUUUAAUGUAGAUGUAAUUUUAAAAAUGAAUGGCUACUUUACACGUUUAACUAGGGUUUUACUAUAUAUGUGUGUGUAUAUAUAUAUAUAUAUA	26.2
UGUGCAUAUGAUGCUUGAGAUGGUUUUUGCAAAAGCAGAAAUCGCUGCAAGGUAAUCCUAAUAGAGAAAAGUGGUAUUUUAAACCUUUGAAAUAAAUGGAUGUAACUGUACGUUGGUACA	0.735
GAUCCACAGUGGUCUGAGGAGCAACUCAUUGCUGCAAAAUUUUGCUUUGCUGGCCUUGUUAUAGGGCAGACUGAAGUGGAUAUCAUGAGUCAUGCCACACAAGCUAUUUUUGAAAUUCUG	0.159
AACAUUUUGUCAAAUUGUUAUGUUCCUGUGAAACAAGUGAACACUCUGAUACACUUCAUCUGCUUGUACAUCUGUAUGAUAGAGAAAUGUAAAUAUGAAUAUAUUUACAAUGUGUCACUU	0.112

Set 4
Target: RNA binding protein fox-1 homolog 2, RRM domain, GST-SBP tag (RBFOX2, Homo sapiens, UniProt O43251-10, residues 100-194)
Technique: RNA Bind-n-Seq
Molecule type: RNA
Matrix: in vitro
Tested at: 365 nM
Setting: natural RNA segment, single round, ends assumed
Baseline: no-protein control
Direction: higher = stronger binding
All sequences stand within: GGGAGUUCUACAGUCCGACGAUC … UGGAAUUCUCGGGUGCCAA
Residues (chain): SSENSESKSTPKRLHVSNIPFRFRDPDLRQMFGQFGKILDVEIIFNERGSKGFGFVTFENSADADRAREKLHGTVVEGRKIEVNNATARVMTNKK
Sequence	RBNS enrichment (R)
UGUAAAUCACGGAAUAUCCGUGAAGGGAUUUCUUAAUUUAUUUUUUACCGGUUGAUUGAAAUAUCAGUUAAAGGUUGCCAGCAUGGUUGCAGAUAAACUGAUGUUUGAAA	0.833
GUUGAUAGGUGUGGUGGACAGAGGCACAGUUGGCUUCAGGGUUCCUUCCCUGUUUUCUCCCCAGAAUUCUAAAACAAAGUUCAGUGGCGAGCAGCAUCUCUAGGCUCUGG	0.807
AGCUUUUUAGUCAGCAGUUUUGUAAACUCUGUAUAUAAAAUCAUUAACCACACAUUGUGGGUGAUGGGAAGACGAUUUCAGCUGACAGAGUUAAUGGCAACCAAUAAUGG	0.292
CCGGCCUGGGCCCCCAGGAUUCUAGGACCCCCAGGCAGCCCCUUGGACUGGUCCCGGGUGCCUUCCAAGCACAGUCUCCAUGCUCCCAGAUUCUCGACCUUCCCCCGGCC	0.178
AGGCUUCUGAGGUACGGGGUCUUGCUGUGUGCUCUCUCUCCGUGCUGCCGUUAAGCCAAAACAAAAGCUGUGAACAUAGGUGCUUGAGAGAAUGCGUGUUGACAGGAAAG	1.76
GUCCACAAUGCUUUUGUUGUCUUGUCCUGCUUCUCUAGUCCAGGGGAGACCAAAAGCUCAUACUCCUAACCCUAGGAAAGGGUUUUAGGGAGCCAAGGACCAGAGAGCCA	0.246
GUCUCAAAAAGAAGUCUUAAGACGGCAUUGCUUAAGGUGCUUCAUUCCCUAAUCCCCUUUUGAUUUGUUUCCAAAAUAAAAGAGAAUCUUUUCUUCCCUACCCCAGGCUU	0.59
UACUGGGUUUUAACUUAUUUUUCUUUAAUAAAAUACAUUGUUUUCCUAAGUUUUGGGGUUACCCUAUCUGCUUUGAGAGACAAAUACAAAAGCUAAAUGGAAGAGAUUCU	0.401
GAGUACCAUAGGAACUUUGUACCAGUUGGAAUUUAAGUGGACUGUUUGCUGCUUUUGUUCGCAUUGGAACGUUGGACAUGCCAUAUGAUACUGGCUUAGUAAUCAAUACC	0.305
AUAACAGUAUUACCCUUUCACUGUUCUCACAGGACAUGUACCUAAUUAUGGUACUUAUUUAUGUAGUCACUGUAUUUCUGGAUUUUUAAAUUAAUAAAAAAGUUAAUUUU	0.66
UACACCCCCCCCCACAAGAGGGGUGGAGUUUCUUCCCAACCCAAAUCUGGAGAGGUCAGAAUGGAACUACCUCAGUUGGCACAAACAGAUCAUGGCUCCUAUCAGUCUCA	0.22
UCUCCCUGGUUAAGCAGUUUGUACUACAGAACCCCCGAGCUGCUGUGGGUCCUACAGGUGCUUCCAUGCUCUGGUUAGACUGUCCUGUCUGAGGACACAGCCAGUUUCUU	0.485

Set 5
Target: ABI1, truncated, D143A, DHFR fusion (Arabidopsis thaliana)
Technique: DHFR PCA, deep sequencing
Matrix: yeast
Setting: methotrexate growth selection, single substitutions
With: (+)-ABA 58 µM
Baseline: wild-type fitted maximum
Direction: higher = stronger binding
Starting sequence: PYL1, truncated, DHFR fusion (Arabidopsis thaliana); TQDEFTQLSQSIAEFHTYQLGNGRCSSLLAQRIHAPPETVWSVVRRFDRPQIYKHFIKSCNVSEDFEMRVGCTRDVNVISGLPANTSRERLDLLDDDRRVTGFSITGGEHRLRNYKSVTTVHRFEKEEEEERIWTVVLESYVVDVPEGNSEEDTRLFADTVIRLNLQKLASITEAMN; partner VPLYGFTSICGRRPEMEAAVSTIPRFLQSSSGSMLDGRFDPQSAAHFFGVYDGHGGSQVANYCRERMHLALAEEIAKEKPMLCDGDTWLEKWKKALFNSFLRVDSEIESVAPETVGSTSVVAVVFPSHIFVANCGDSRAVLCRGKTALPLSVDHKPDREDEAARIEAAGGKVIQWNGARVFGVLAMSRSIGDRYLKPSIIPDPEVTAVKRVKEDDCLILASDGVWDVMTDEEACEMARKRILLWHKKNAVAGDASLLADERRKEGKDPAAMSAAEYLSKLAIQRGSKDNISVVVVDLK
Variant	relative binding score [%]
M68L	96.8
T106S	59.6
S80L	-0.234
S80R	20.6
G71Q	22.9
E109Q	96.1
E67G	74.6
C60R	14.3
S87Q	3.01
T6R	92
E127M	90.4
S63I	76.3
D92H	33.7
E131A	97.4
R123W	70.2
R46Q	98.3
N61C	82.8
H110M	22.9
Q167M	82
Y141K	-3.03
T101N	1.13

Set 6
Target: JUNB, bZIP domain (human)
Technique: DHFR protein complementation
Matrix: yeast
Setting: single substitutions, most at no-binding floor
Baseline: wild-type JUN-FOS pair
Direction: higher = stronger binding
Starting sequence: JUN, bZIP domain (human); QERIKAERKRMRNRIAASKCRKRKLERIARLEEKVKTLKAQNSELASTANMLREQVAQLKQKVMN; partner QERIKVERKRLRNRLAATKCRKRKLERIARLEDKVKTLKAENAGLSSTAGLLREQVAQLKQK
Variant	binding fitness
K39R	-1.1 natural log
L31D	-1.37 natural log
E54S	-1.33 natural log
V35Y	-1.43 natural log
A46K	-0.664 natural log
L45G	-1.51 natural log
S43F	-1.14 natural log
L38F	-1.49 natural log
E33P	-1.52 natural log
K39H	-1.37 natural log
Q41M	-1.2 natural log
E44C	-1.35 natural log
M51S	-1.12 natural log
E44F	-1.24 natural log
R30F	-1.16 natural log
S47Q	-0.945 natural log
S47D	-1.05 natural log
A49L	-1.08 natural log
Q41C	-1.5 natural log
K39S	-1.16 natural log
N42H	-1.2 natural log
Q41V	-1.3 natural log
L31A	-1.44 natural log
L38W	-1.5 natural log
V35L	-1.3 natural log

Repeated from above (set 5):
Variant	relative binding score [%]
M68L	96.8
T106S	59.6
S80L	-0.234
S80R	20.6
G71Q	22.9
E109Q	96.1
E67G	74.6
C60R	14.3
